Published values collected from several papers.
Each numbered part is a random draw from the data of one study; scales do not carry over between parts. Positions count from the first letter of the parent shown.
Chain of UniProt P34947 (whole entry, looked up): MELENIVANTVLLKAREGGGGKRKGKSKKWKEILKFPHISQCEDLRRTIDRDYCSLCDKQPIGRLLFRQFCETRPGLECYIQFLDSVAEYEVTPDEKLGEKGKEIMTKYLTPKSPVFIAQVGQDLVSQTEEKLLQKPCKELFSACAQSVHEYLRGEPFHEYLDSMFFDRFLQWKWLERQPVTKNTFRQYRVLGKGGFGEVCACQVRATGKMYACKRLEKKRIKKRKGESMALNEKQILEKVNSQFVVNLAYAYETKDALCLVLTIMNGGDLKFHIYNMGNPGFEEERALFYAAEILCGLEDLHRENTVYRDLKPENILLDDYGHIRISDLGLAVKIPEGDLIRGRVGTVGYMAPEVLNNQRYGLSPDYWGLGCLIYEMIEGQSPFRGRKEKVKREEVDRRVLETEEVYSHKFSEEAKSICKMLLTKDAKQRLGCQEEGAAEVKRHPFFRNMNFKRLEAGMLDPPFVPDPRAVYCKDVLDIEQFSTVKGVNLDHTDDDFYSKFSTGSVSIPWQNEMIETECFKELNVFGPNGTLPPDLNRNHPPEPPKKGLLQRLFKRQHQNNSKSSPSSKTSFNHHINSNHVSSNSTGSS

Series 1
Target: Histone acetyltransferase KAT6A, winged helix 2, GST fusion (KAT6A, Homo sapiens, UniProt Q92794, residues 85-181)
Method: protein binding microarray
Form: double-stranded DNA, one strand shown
Matrix: in vitro
Tested at: not given
Notes: 8-mer, flanks averaged, mean of 2 arrays, mostly near background
Relative to: not given
Direction: higher = stronger binding
Endpoint: E-score
Construct (chain): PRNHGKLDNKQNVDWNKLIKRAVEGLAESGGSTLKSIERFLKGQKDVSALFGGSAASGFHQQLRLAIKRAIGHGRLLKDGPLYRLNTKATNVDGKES
Strand = AACAACTC; result = -0.104
Strand = CAATGCGG; result = 0.114
Strand = GGCCTAAC; result = -0.00082
Strand = CGTAGTAG; result = -0.0506
Strand = ATGGCTTC; result = 0.0288
Strand = ACAGTTCA; result = 0.00271
Strand = AAACTAAG; result = 0.0789
Strand = GAATTAAC; result = 0.14

Series 2
Target: CCND1, cyclin fold, Cln2 fusion (human)
Method: yeast growth competition, sequencing
Matrix: yeast
Notes: weak parent motif
Relative to: not given
Direction: higher = stronger binding
Endpoint: normalised enrichment score
Starting sequence: PKMYT1 docking peptide (human); SFEPRNLLSLFED
Substitution = S9N; result = 1.24
Substitution = R5P; result = 0.94
Substitution = L8Q; result = 0.815
Substitution = D13F; result = 1.66
Substitution = S1I; result = 0.293
Substitution = L10R; result = 0.887
Substitution = F2L; result = 0.962
Substitution = E3S; result = 0.726

Series 3
Target: ABI1, truncated, D143A, DHFR fusion (Arabidopsis thaliana, UniProt P49597)
Method: DHFR PCA, dose-response
Matrix: yeast
Notes: Hill fit, mean, not affinity
With: (+)-ABA, dose series
Direction: lower = more sensitive
Endpoint: ABA EC50
Starting sequence: PYL1, truncated, DHFR fusion (Arabidopsis thaliana, UniProt Q8VZS8); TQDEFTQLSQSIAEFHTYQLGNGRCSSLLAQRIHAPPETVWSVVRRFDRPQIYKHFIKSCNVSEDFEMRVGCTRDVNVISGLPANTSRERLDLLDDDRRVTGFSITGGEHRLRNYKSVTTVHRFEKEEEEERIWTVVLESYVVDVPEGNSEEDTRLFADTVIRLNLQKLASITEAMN
Substitution = E64G; result = 2.72 µM
Substitution = E125R; result = 2.19 µM
Substitution = R132V; result = 1.98 µM
Substitution = K168Y; result = 64.9 µM
Substitution = S42G; result = 3.71 µM
Substitution = E4K; result = 4.92 µM
Substitution = L20R; result = 1.7 µM
Substitution = L166I; result = 260 µM

Other studies, line by line
Compound = CN(C)CCCn1cc(C2=C(c3c[nH]c4ccccc34)C(=O)NC2=O)c2ccccc21; target = G protein-coupled receptor kinase 5 (GRK5, Homo sapiens, UniProt P34947); observed = enzyme activity; action = inhibitor; tested at = 0.5 µM; relative to = control; endpoint = remaining activity; result = 71.6%
